Published values pooled from the literature.
A part holds a random share of what one study measured. Substitutions count along the parent as printed.

Series 1
Target: Histone acetyltransferase KAT6A, winged helix 1, GST fusion (KAT6A, Homo sapiens, UniProt Q92794, residues 1-85)
Technique: protein binding microarray
Molecule type: double-stranded DNA, one strand shown
Sample: in vitro
Concentration: not given
Setting: 8-mer, flanks averaged, mean of 2 arrays, mostly near background
Relative to: not given
Direction: higher = stronger binding
Measurement: E-score
Target sequence (chain): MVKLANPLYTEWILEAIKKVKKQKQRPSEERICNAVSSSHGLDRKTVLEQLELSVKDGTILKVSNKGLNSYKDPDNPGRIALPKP
Strand = CGGAAGAA; value = 0.102
Strand = ACATTGGG; value = -0.201
Strand = AACAGTGA; value = -0.0646
Strand = TAATTCTA; value = -0.166
Strand = CTATTGTC; value = 0.00304
Strand = TCAGCGAA; value = 0.107
Strand = CCGTGCGA; value = 0.315
Strand = AGGGGTCG; value = -0.044
Strand = GCAAACTA; value = -0.243
Strand = AATGCTCT; value = -0.0572
Strand = CATTGCGA; value = -0.0959
Strand = ATGTATTC; value = -0.0168
Strand = CGTAGTAC; value = 0.153
Strand = CCAGGTCC; value = -0.00474
Strand = CCTATACG; value = 0.0279
Strand = GACTCTTA; value = -0.268
Strand = AATGCCCG; value = 0.253
Strand = CTTCTTGC; value = 0.0496
Strand = CAACGTCA; value = -0.0989
Strand = CAAGGGTC; value = 0.000875
Strand = AGTCCAGG; value = -0.233
Strand = CATCTATC; value = -0.0203
Strand = CGATAAAG; value = 0.0822
Strand = CGAATCCG; value = 0.259
Strand = CGCTCCCC; value = 0.321

Series 2
Target: CCND3, cyclin fold, Cln2 fusion (human)
Technique: yeast growth competition, sequencing
Sample: yeast
Setting: weak parent motif
Relative to: not given
Direction: higher = stronger binding
Measurement: normalised enrichment score
Starting sequence: SCAPER docking peptide (human); SNARRSLNFGGST
Change = SNARRELNFGGST [S6E]; value = 0.0619
Change = SNARRSLPFGGST [N8P]; value = 0.11
Change = SSARRSLNFGGST [N2S]; value = 0.191
Change = SNARRSNNFGGST [L7N]; value = 0.115
Change = SNARRSLNFGGRT [S12R]; value = -0.00518
Change = SNARRSLAFGGST [N8A]; value = 0.109
Change = SNARRGLNFGGST [S6G]; value = 0.207
Change = SNARRSLMFGGST [N8M]; value = 0.13
Change = SNKRRSLNFGGST [A3K]; value = 0.103
Change = SNARRSPNFGGST [L7P]; value = 0.108
Change = SNARRSQNFGGST [L7Q]; value = 0.16
Change = ANARRSLNFGGST [S1A]; value = 0.168
Change = SNARISLNFGGST [R5I]; value = 0.155
Change = SNARWSLNFGGST [R5W]; value = 0.0161
Change = SNARRSLNFGGSN [T13N]; value = 0.15
Change = SNARRSLLFGGST [N8L]; value = 0.0696

Series 3
Target: RNA binding protein fox-1 homolog 2, RRM domain, GST-SBP tag (RBFOX2, Homo sapiens, UniProt O43251-10, residues 100-194)
Technique: RNA Bind-n-Seq
Molecule type: RNA
Sample: in vitro
Concentration: 365 nM
Setting: natural RNA segment, single round, ends assumed
Relative to: no-protein control
Direction: higher = stronger binding
Measurement: RBNS enrichment (R)
Constant ends, left off below: GGGAGUUCUACAGUCCGACGAUC … UGGAAUUCUCGGGUGCCAA
Target sequence (chain): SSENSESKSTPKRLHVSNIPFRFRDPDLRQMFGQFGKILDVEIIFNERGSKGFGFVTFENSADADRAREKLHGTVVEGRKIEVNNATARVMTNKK
Strand = UGUCUUCUACCUGCAUUUUGGCAUCAGAGCCCCCCAGCCCACCCACCACAGGCAAUUACUAGCCCUAGUUGAUAGGUGAGGUGGGUGAAGAAGGCUGGAGGUGACAUGUC; value = 0.575
Strand = ACCAUGACGCUAGUGCAGUGACAGCCUGUGUCACGGCCGUGUUGAGGGGUCCCAGCAGAGGCCUGUGUCGUGUAACCCAGGGACUACAAGUGUCAGUGUGGGUAUCAACC; value = 1.65
Strand = GAACAAAAACCAAUAAAAGAAUAUACUCUUUUCAUUGACUAUAGUAUUAUGUGAAUGCUACAUUUGUUCUGAACACUUAGGGGCUGCAAAAAUGUAAUAAGAAAUGCAUA; value = 0.552
Strand = GCAGACUGGUGAGCAGACUGGUGGGAUCUGUGCCCAGAGAUGGGACUGGGAGGGCCCACUUCAGGGUUCUCCUCUCCCCUCUAAGGCCGAAGAAGGGUCCUUCCCUCUCC; value = 0.284
Strand = ACGUUCUCAGUUGAUAUCUGAGUAUUGGGUGCAUUUGGUGGCUUAAAAGCAAAGCUUCCUAAAAAGAUUUUUCUUGGCAGCUCCAGGUCUAUACAUUUAGGUAAUGAAUG; value = 0.339
Strand = CAGUCCUCUGGGGUCAGUGUCUCGGGCAGUGGGAUGGAACUGUGUGAUUGCUCUUAGGUGAGUUCCGAGUCUUAAUCUAUGCAUUCAGAGAAAUAUUUUUAUAUGCGUUG; value = 1.54
Strand = UACAGUUGAGUGGGAGUAAACAAAAAGAUAAACAUGCGUGUUAAUGGCUGUUCGAGAGAAAUCGGAAUAAAAGCCUAAACAGGAACAACUUCAUCACAGUGUUGAUGUUG; value = 0.408
Strand = AGUCCUCAAUCCUGUGUCCCAGAGGUCCCUCUGGGCCACAACCCAACCCUUCUCACUCUCCUCAGUGCUAGCACUUUGUAUUUUUUGAUACUUUUAUACUUGUUUCUGCU; value = 0.711

Series 4
Target: Ras GTPase-activating protein-binding protein 1, C-terminal RGG region (G3BP1, Homo sapiens, UniProt Q13283)
Chain of UniProt Q13283 (whole entry, looked up): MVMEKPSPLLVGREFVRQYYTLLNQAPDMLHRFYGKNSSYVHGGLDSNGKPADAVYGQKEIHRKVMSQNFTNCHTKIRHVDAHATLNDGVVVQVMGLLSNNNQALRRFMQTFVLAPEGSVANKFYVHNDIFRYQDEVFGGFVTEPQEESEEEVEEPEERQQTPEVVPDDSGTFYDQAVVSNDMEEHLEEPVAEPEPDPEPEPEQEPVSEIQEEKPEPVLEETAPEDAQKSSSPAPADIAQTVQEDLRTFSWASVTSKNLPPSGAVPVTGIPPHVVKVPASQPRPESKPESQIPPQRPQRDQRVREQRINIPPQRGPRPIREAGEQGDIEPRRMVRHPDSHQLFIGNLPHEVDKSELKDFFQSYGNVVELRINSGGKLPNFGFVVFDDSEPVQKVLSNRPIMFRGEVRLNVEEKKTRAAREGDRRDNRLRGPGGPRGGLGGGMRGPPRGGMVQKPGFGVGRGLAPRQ
Technique: RNA Bind-n-Seq
Molecule type: RNA
Sample: in vitro
Concentration: 1 µM
Setting: whole 134-nt RNA, ends assumed
Together with: 150 mM KCl
Relative to: input library
Direction: higher = stronger binding
Measurement: log2 enrichment
Constant ends, left off below: GGGAGUUCUACAGUCCGACGAUC … UGGAAUUCUCGGGUGUCAAGG
Strand = AAGUCCUGUGCUACACAUCGUAUGUACCGAAUCGGUUUUUGGAAAAAAAGGUUUGGAAAGUAUUAUGUUACGCCGUUCGGAUCUGCACUU; value = -2.22
Strand = UAACUUUAGAGGAGGAUCUGAUGGAUAUGGCAGUGGACGUGGAUUUGGGGAUGGCUAUAAUGGGUAUGGACGAGGACCUGGAGGUGGCAA; value = -0.661
Strand = GCAGGAAGUAAAAACAAAUGGAAAUGCUUCGGAUAGUGGCAGGGGUGGGGGUUGCUAAGGCAAGGGUGGGAUGGGAGUGGGUAAAGAGUU; value = 1.61
Strand = GUCCUGUGCUACACAUCGUAUGUACCGAAUCGGGUUUUUUUGGGAAAAAAAGGGAGGGAAAGUAUUAUGUUACGCCGUUCGGAUCUGCAC; value = -0.105
Strand = UGGCCCUGGUGGCAUGCGGGGAGGAAGAGGUGGCCUCAUGGAUCGUGGUCGUCCCGGUGGAAUGUUCAGAGGUGGCCGUGGUGGAGACAG; value = 0.89
Strand = ACCAUGCAGGUGGGCAUCUUUGGGAAGUGGGGCAAGGGGGGGAUAGGGAGGGGGGUAACACUUUGGGAACAGGUGGUCCCACGUCGUUUC; value = 1.73
Strand = UUAAUAGAUUGAACUUCAAAAAAAAAUUCUUUCUUAAUUUCUGGAUUAAAAAGUAUGCCUGUGUCUUCUAGACCUUUACCAGAAGAUGAU; value = -1.82
Strand = AGUCCUGUGCUACACAUCGUAUGUACCGAAUCAAAUUUUUUUAAAUUUAAACCCAAAAAAGUAUUAUGUUACGCCGUUCGGAUCUGCACU; value = -1.48
Strand = UCAAGUCCUGUGCUACACAUCGUAUGUACCGAAUCGGAAGGGGAAGGGGAAGGGGAAAGUAUUAUGUUACGCCGUUCGGAUCUGCACUUC; value = 1.22

A few entries again (series 2):
Change = SNARRGLNFGGST [S6G]; value = 0.207
Change = SNARRSLMFGGST [N8M]; value = 0.13
Change = SNKRRSLNFGGST [A3K]; value = 0.103
Change = SNARRSPNFGGST [L7P]; value = 0.108
Change = SNARRSQNFGGST [L7Q]; value = 0.16
Change = ANARRSLNFGGST [S1A]; value = 0.168
Change = SNARISLNFGGST [R5I]; value = 0.155
